Literature values that unrelated publications cite.
Protocols differ between the studies behind these lines. Numbers after ± are the reported error.
Sequence of UniProt P21554 (whole entry, looked up): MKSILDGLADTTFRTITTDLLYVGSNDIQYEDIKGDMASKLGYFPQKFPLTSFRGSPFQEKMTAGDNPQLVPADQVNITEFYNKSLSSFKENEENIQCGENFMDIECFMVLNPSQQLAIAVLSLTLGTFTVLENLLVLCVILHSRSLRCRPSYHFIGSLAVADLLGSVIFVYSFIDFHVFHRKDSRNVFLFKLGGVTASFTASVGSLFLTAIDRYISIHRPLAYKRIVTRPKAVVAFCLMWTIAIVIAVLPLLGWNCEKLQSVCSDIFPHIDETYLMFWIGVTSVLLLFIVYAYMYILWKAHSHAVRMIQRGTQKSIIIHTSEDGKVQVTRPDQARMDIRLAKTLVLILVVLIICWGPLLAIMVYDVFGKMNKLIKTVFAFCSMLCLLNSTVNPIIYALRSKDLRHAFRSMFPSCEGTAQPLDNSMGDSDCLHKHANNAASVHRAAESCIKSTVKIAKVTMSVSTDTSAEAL

SMILES	target or system	test	test system	setting	scale	quantity	value
Fc1cccc(COc2ccc(Nc3ncnc4ccc(-c5ccc(N6CCOCC6)cc5)cc34)cc2Cl)c1	Trypanosoma brucei	parasite growth				EC50	1.9 µM
CN(C(=O)[C@H](Cc1ccccc1)NC(=O)Cc1c[nH]c2ccc(O)cc12)c1ccccc1	HIV-1	viral replication	TZM-GFP, wild type			EC50	0.053 ± 0.015 µM
CC(=O)Nc1ccc(C(=O)C=C(O)C(F)(F)C(F)(F)F)cn1	Plasmodium falciparum	parasite growth	3D7			EC50	0.05 ± 0.001 µM
c1ccc2c(c1)CCNC2c1c[nH]c2ccncc12 (stereo not shown)	COLO 320 ABCB1-resistant colon	cytotoxicity				IC50	> 100 µM
O=C(C=C(O)C(F)(F)C(F)(F)F)c1ccco1	Plasmodium falciparum	parasite growth	3D7			EC50	1.98 ± 0.04 µM
CC(=O)Sc1ccccc1C(=O)NCCC(N)=O	HIV-1	viral replication	CEM-SS, RF			EC50	1.13 ± 0.19 µM
O=C(C=C(O)C(F)(F)C(F)(F)F)c1ccc(NCc2ccccc2)nc1	Plasmodium falciparum	parasite growth	3D7			EC50	0.078 ± 0.004 µM
Cc1cc(-c2ccc(C#N)cc2)cc(C)c1Oc1ccnc(Nc2ccc(C#N)cc2)n1	HIV-1	viral replication	IIIB wild type			EC50	0.001 µM
Cn1cnc([N+](=O)[O-])c1Sc1ccccc1C(=O)NCCC(N)=O	HIV-1	viral replication	human PBMC, 92HT599			EC50	3.23 ± 2.81 µM
CCOC(=O)C(c1cc(Cl)c2cccnc2c1O)c1c[nH]c2ccccc12 (stereo not shown)	COLO 320 ABCB1-overexpressing	cell viability				IC50	4.81 µM
O=C(c1cccc(-c2ccc3ncnc(Nc4ccc(OCc5cccc(F)c5)c(Cl)c4)c3c2)c1)N1CCOCC1	Trypanosoma brucei	parasite growth				EC50	0.55 µM
CCOC(=O)c1[nH]c(C)c(Cc2ccc(C(F)(F)F)nc2)c1C	Plasmodium falciparum	parasite growth	3D7			EC50	0.0092 µM
Cc1ccc(N(C)C(=O)[C@H](Cc2ccccc2)NC(=O)Cc2c[nH]c3ccc(O)cc23)cc1	HIV-1	viral replication	TZM-GFP, wild type			EC50	0.032 ± 0.008 µM
O=C(c1ccc(-c2ccc3ncnc(Nc4ccc(OCc5cccc(F)c5)c(Cl)c4)c3c2)cc1)N1CCOCC1	Trypanosoma brucei	parasite growth				EC50	1.2 µM
O=C(C=C(O)C(F)(F)C(F)(F)F)c1cccnc1	Plasmodium falciparum	parasite growth	3D7			EC50	0.24 ± 0.01 µM
O=c1ccc(OCCCN2CCCCC2)nn1-c1ccc(Cl)c(Cl)c1	CNR1 (Homo sapiens, UniProt P21554)			1.0 µM		inhibition	19.3 ± 2.4%
Fc1cccc(COc2ccc(Nc3ncnc4ccc(-c5cccc(CN6CCOCC6)c5)cc34)cc2Cl)c1	Trypanosoma brucei	parasite growth				EC50	0.36 µM
CCCNc1ccc(C(=O)C=C(O)C(F)(F)C(F)(F)F)cn1	Plasmodium falciparum	parasite growth	3D7			EC50	0.015 µM
c1ccc(Nc2ncnc3ccc(-c4cccc(N5CCOCC5)c4)cc23)cc1	Trypanosoma brucei	parasite growth				EC50	11 µM
COc1ccc(Nc2nc(Nc3ccc(OCC[18F])cc3)ncc2Br)cc1			S180 tumour-bearing mice	intravenous, 15 min	reference: tumour over bone	tumour to tissue ratio	1.89
CCCC(=O)OCSc1ccccc1C(=O)NCCC(N)=O	HIV-1	viral replication	CEM-SS, RF			EC50	1.03 ± 0.54 µM
O=C(C=C(O)C(F)(F)C(F)(F)Cl)c1cccnc1	Plasmodium falciparum	parasite growth	3D7			EC50	0.35 ± 0.03 µM
CCn1c(C)c(CC(=O)N[C@@H](Cc2ccccc2)C(=O)N(C)c2cccc(F)c2)c2ccccc21	HIV-1	viral replication	TZM-GFP, wild type			EC50	0.33 ± 0.13 µM
CN1CCN(S(=O)(=O)c2ccc(-c3ccc4ncnc(Nc5ccc(Cl)cc5)c4c3)cc2)CC1	Trypanosoma brucei	parasite growth				EC50	2.4 µM
CN(C(=O)[C@H](Cc1ccccc1)NC(=O)Cc1c[nH]c2ccc(O)cc12)c1ccc(Cl)cc1	HIV-1	viral replication	TZM-GFP, wild type			EC50	0.022 µM
Fc1cccc(COc2ccc(Nc3ncnc4ccc(-c5cccc(N6CCNCC6)c5)cc34)cc2Cl)c1	Trypanosoma brucei	parasite growth				EC50	0.25 µM
O=C(C=C(O)C(F)(F)C(F)(F)C(F)(F)F)c1cccnc1	Plasmodium falciparum	parasite growth	3D7			EC50	1.17 ± 0.03 µM
CCn1c(C)c(CC(=O)N[C@@H](Cc2ccccc2)C(=O)N(C)c2ccc(Cl)cc2)c2ccccc21	HIV-1	viral replication	TZM-GFP, wild type			EC50	0.2 ± 0.09 µM

Some of these lines once more:
SMILES	target or system	test	test system	setting	scale	quantity	value
CN(C(=O)[C@H](Cc1ccccc1)NC(=O)Cc1c[nH]c2ccc(O)cc12)c1ccccc1	HIV-1	viral replication	TZM-GFP, wild type			EC50	0.053 ± 0.015 µM
CC(=O)Nc1ccc(C(=O)C=C(O)C(F)(F)C(F)(F)F)cn1	Plasmodium falciparum	parasite growth	3D7			EC50	0.05 ± 0.001 µM
c1ccc2c(c1)CCNC2c1c[nH]c2ccncc12 (stereo not shown)	COLO 320 ABCB1-resistant colon	cytotoxicity				IC50	> 100 µM
O=C(C=C(O)C(F)(F)C(F)(F)F)c1ccco1	Plasmodium falciparum	parasite growth	3D7			EC50	1.98 ± 0.04 µM
